Measurements collected from several papers.
Every numbered part comes from another study and shows a few of its results, in no order.

Sample 1
Target: Interferon regulatory factor 7, full length, phosphomimetic (IRF7, Homo sapiens, UniProt Q92985, residues 1-503, S471D/S472D/S475D/S476D/S477D/S483D/S484D/S487D)
Technique: protein-binding microarray
Molecule type: double-stranded DNA, one strand shown
Sample: in vitro
Tested at: 2200 nM top
Notes: 60-bp whole probe
Together with: salmon DNA 0.4 mg/ml
Baseline: random background probes
Direction: higher = stronger binding
Constant ends, left off below: GCCTAGCAC … GTCTTGATTCGCTTGACGCTGCTG
Construct (chain): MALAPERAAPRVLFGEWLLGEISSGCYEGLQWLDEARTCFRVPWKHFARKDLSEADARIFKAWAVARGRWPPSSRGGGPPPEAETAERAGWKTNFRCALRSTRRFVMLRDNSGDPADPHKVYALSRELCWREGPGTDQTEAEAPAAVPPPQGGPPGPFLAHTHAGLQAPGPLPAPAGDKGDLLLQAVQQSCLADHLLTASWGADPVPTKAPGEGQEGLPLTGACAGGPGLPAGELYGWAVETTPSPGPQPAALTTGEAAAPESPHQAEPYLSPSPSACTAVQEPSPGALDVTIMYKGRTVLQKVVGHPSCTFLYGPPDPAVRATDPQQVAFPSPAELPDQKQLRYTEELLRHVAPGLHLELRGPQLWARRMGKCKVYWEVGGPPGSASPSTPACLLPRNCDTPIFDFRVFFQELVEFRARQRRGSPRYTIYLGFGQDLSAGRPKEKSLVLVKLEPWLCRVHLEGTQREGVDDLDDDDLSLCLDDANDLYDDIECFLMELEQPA
Sequence | fitted relative affinity
GACAAACTGAGACTGGAGACGTGCTAG | -0.277 z-score
TTAGGTTTGGGTATCGGTTAGTGCTAG | 0.955 z-score
GACGGACTGGGAGTGGGGACGTGCTAG | -0.724 z-score
TATGTTCCCTATATAAGGCGGTGCTAG | 1.14 z-score
ATTCCTTTGCCTCCAGGCGCGTGCTAG | 1.45 z-score
TCAAGCTTGGGTCTGTGACTGTGCTAG | -0.332 z-score
TTAGATTTCGGGAATGGATTAGTGCTA | 0.432 z-score
TTAGATTTCAGTTTCGTTTAGTGCTAG | 8.76 z-score
TCATAAATCTTTGTTGGAACTGTGCTA | -0.103 z-score
GACGAACTGAGTATCGGGACGTGCTAG | -0.292 z-score
TTAGATTTCAGTTCCGATTAGTGCTAG | 2.05 z-score
GACGGTATGCTTCTCCTGACGTGCTAG | 0.724 z-score
GACGGTATCGGGACGGGGGACGTGCTA | 0.578 z-score
TTAGATTTCGGGTATCGCTTAGTGCTA | 2.83 z-score
TTAGGTTTCGGTTCCGCTTAGTGCTAG | 11.1 z-score
TTAGATTTCAGTTTCAATTAGTGCTAG | 2.74 z-score
CCGCCGCCTGGCTGGGGGATGTGCTAG | -0.542 z-score
GACTGTATCCTTATCCTGACGTGCTAG | 1.56 z-score
GACGATATCGGGTATCGAAACGTGCTA | 0.513 z-score
GACGGTTTTCTACTGCTGACGTGCTAG | 1.74 z-score
CAAAAATGATTGGTTGAACAGTGCTAG | -0.359 z-score

Sample 2
Target: RNA binding protein fox-1 homolog 2, RRM domain, GST-SBP tag (RBFOX2, Homo sapiens, UniProt O43251-10, residues 100-194)
Technique: RNA Bind-n-Seq
Molecule type: RNA
Sample: in vitro
Tested at: 365 nM
Notes: natural RNA segment, single round, ends assumed
Baseline: no-protein control
Direction: higher = stronger binding
Constant ends, left off below: GGGAGUUCUACAGUCCGACGAUC … UGGAAUUCUCGGGUGCCAA
Residues (chain): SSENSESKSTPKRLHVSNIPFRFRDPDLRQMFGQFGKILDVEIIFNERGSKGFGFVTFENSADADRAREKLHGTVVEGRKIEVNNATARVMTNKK
Sequence | RBNS enrichment (R)
AUUUGUGUGUUCAAUCAGAUAAUUCUGACUUCUGCAUUGCCACACACGAGAUAUUCUGCUUUCAGACUUAUUUUAUUGCAACCAGAGAAUAUGAGAAUUUGAUAUGUAAU | 0.896
GUGCACCUUGAAUGUAGUAUUUGAAAAGCUUCCCACUUGCAGCUUUACACGUUUGUUAGCACUAGUUCUGAAUUUGUGUAGGUCUCAACCUUUCAGGACAUCUGGGUCUA | 0.889
UGGGGAAGUGAUCUUUUGUUCCCAUCCUCUUCUUUUAGCAGUAAAAUAGCUGAGGGAAAAGGGAGGGAAAAGGAAGUUAUGGGAAUACCUGUGGUGGUUGUGAUCCCUAG | 0.201
UCUCCAGUCCUCUUUCUGGAAUAGGAAACUCCCAAUAUUUAACCUUCAUUCAUCCUUAACGGUGUGGAAGGGUUGAUGGACUGGAAAGCAAGUGGUUGGUUCGCGUUGGC | 0.73
AAAGUUGUGGCCUGGCCUUGAAUCCUCUAUUAAUUACUGUGUGAGCCAGAGGGAACUGCCCUGCAAGGGUGGGCCCCCAGCCGGCAGGGGAACUUUCUAGACUCCCGCUC | 0.231
CUGGGCUCCCCCCAGUGGGAUGGGACAGGGAGGCCACACGCACUGGUGCCAAAACCAGGCCUCUGCUGCCGCCCUUCCUGGAGGCUGCCUAUGUUGGGGGGGACCCUGCC | 0.482
UGAAAUCCAAGCAAUACACAGGAAAUUUAAGUAGAAUAAAAAUUGCAGCCCAUUUUUGAAAUGUCAGCAUGUGCUGUGUUCAGUUCAGGUUUUUGUUGUUUGUUUUGUUA | 0.96
UGGUGUCUCAUGUGUACUUCCUGUCUGUCCCCUUUGAUGGCUGUGCGGUCAUCCUAUCGGCGUGGCCUAGGUCCCUUGUGUGUGUAGCACAUCCCUGCUUUUGACUGAAC | 0.533
CUAUCAGGUCUACGACAGCAUUUUGAAAAACUACAAGACUGGUCCAGUACCCUUCAACCAUGCUGUGAUCGGUGCAAGUCAAGAACUCUUAACUGGAAGAAAUUGUAUUG | 1.42
UGGCCUGAGUGUGGAGGACAAAGGAGGUCCAUGUCCUGCUUGCUGGAGACAGCUGGCCAGAAUCGUAUAUGCUGGUUUUAUAACUGUUUUAUUAUUAAAGAGAAGAAAAC | 0.548
ACUUUGAAUUCUUACAAGCAAAGGUCAUUGUGUUUUUCUUGAAUAGACAUCUAAUAAAUUUUGCUUGGAAGUAUACUUCAGUUUUUCUUCUUGACAUUUAUCUUUAUAAA | 0.449
UCCUACAAAGCAAUAUUCCAAAGGAACAUUUUAACUGUAAAGGCUGGAGACAAGAAAAAAUAAGUAGAUCGUUUUAAUAACAAUUAUUUAAUUGCCUAUAAGUUUGCUGU | 0.534

Sample 3
Target: Histone acetyltransferase KAT6A, winged helix 1, GST fusion (KAT6A, Homo sapiens, UniProt Q92794, residues 1-85)
Technique: protein binding microarray
Molecule type: double-stranded DNA, one strand shown
Sample: in vitro
Tested at: not given
Notes: 8-mer, flanks averaged, mean of 2 arrays, mostly near background
Baseline: not given
Direction: higher = stronger binding
Construct (chain): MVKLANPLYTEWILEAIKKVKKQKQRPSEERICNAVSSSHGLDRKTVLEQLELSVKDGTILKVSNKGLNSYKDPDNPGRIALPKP
Sequence | E-score
CAAGTGAA | -0.183
ATAATTAC | -0.0975
GAAGCAGC | -0.119
CAATTCGG | 0.0372
CCAGGCCG | 0.146
CCGGAGCC | 0.192
GATGTCGC | 0.198
GAGCTTGA | -0.203
CAACCTTC | -0.0866
ACACGCGC | 0.389
GCGCCCAA | 0.151
ACATTAGA | -0.133
GTAGAGCA | -0.236
CTGTCGCA | 0.113
GTAGTCAA | -0.108
ATCTTTTA | -0.131
AGCTCGAG | 0.0452
CTGCGGAA | 0.165
AAGGGGTA | -0.254
GAAGTAAC | -0.0773
AGAGAGCT | -0.207

Sample 4
Target: RING finger protein unkempt homolog, zinc fingers 1-6, GST-SBP tag (UNK, Homo sapiens, UniProt Q9C0B0, residues 30-357)
Technique: RNA Bind-n-Seq
Molecule type: RNA
Sample: in vitro
Tested at: not given
Notes: RNA with constant flanks, human-mouse chimeric sites, ends assumed
Baseline: input RNA pool
Direction: higher = stronger binding
Constant ends, left off below: GGGAGUUCUACAGUCCGACGAUC … CAACAGAGGAUUGAGCAUCA
Construct (chain): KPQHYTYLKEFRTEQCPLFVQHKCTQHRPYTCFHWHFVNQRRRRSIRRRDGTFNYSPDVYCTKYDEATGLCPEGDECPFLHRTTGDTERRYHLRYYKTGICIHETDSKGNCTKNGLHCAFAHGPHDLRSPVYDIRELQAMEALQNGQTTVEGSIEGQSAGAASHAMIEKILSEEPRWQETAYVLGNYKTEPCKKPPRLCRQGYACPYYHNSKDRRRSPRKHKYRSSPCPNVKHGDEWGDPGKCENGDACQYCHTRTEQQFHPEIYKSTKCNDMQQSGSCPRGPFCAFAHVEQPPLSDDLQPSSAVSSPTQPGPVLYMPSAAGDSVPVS
Sequence | bound/input enrichment [ratio]
GGGGAGAAACCUUACGAGUGUGUGCAGUGUGGGAAAUCCUACAGUCAAAGCUCAAAUCUCUUCAGACAUCAGAGACGACACAAUGCAGAAAAACUUCUGAAUGUUGUGAAGGUUUAAGAA | 0.0811
AGCACAACCCCAGCAAAGCUAAGAAAUCCUUGUACAAGUGAACAAAACUGCACCAGCCCAUUUAGCUACAAAAAUGUGCUUAGUCUUACUAAUAAAGGAGAGUUUUUUAAUGAACUUGUU | 0.723
CAACCUCAGAGCCCAGACUUCCUGGAUAUUACCAACCCUAAAGCGGUAUUAGAAAAUGCAUUGAGAAACUUCGCCUGUCUGACGACUGGAGAUGUGAUUGCUAUCAACUACAAUGAGAAG | 0.327
CUCAGAGAUGUGGCAUAUCAGUAUGUGAAAAAGGGGUCUCGUAUAUUUGUGGAAGGGAAAGUGGACUAUGGCGAGUACAUGGAUAAAAAUAAUGUGAGGCGGCAAGCAACAACAAUCAUA | 0.524
UUUGUAUUUAUGCUAAGCACACGUGCUGGUGGUCUGGGCAUCAAUCUUGCAACUGCUGAUGUAGUCAUUUUAUAUGACUCAGAUUGGAAUCCCCAAGUUGAUCUUCAGGCUAUGGACCGU | 0.123
AAAGCCCAAGUAUUUUGAAAAAACUCGAACAGAUUUGACAAGGGUAGCCAGCUUGGAGUCUAGCAACUUGCCAAUGUGUUUACCAAUCUGGGGGCUUUGUUUUUCUUCCCUUCCUUAAAU | 0.403
UUACCCGAGAACGAGGAUGAGCUGGAGAGCACCAAUAGGCGCUACACCAAGAGGGACUGCAGCACUUUCCUCAGAACUAGUGAGACGGGCAUUGUGGACCAGGUCAUGGUCACUCUCAAC | 0.144
UUAAUCCCCUUUACUGCUCCCCCACUUCUCAUGGUAAUAACAAAGUCUUAUAUCCCCAUAUUAGCUUUCACUCAGAUGGCUUAUGGAGCCGGUUUCCUAUCUUUCUUGGGAGGGAUCAGA | 0.264
CGGAGCCCUCCUCUCCCACAGGCCCAAGAUAUAACCCACCAGUGCCUUUUGUCUUCCUGUCAGCUCUGUCAAUCACGCCUGUCCUCUCACGCCCACACUCCCCAGCCCCACCCCUAAGGG | 0.526
CUAGCAGUCCAGCAGCUAGAAGGAGCCUUGAGACAAACACUCCACACACAGGGAAGGCGAUAACAUUGUACAUUGGUUUACAUUUUUUCCCCCUGUGUUUUCUAGGGGAGGUCAUAGUGC | 0.812
ACCAUUUUCGCGGUUCAGGCUUUGUGUGUAGUUCACUUACGGUAUUAAAUUAUUAUUCUGCUUAGCUUAAAGUAAGGAUAAUUGCAUUUAAAGAGGUGAUCACUGAAUACUCUGAAACUU | 0.306

Repeated from above (sample 4):
Sequence | bound/input enrichment [ratio]
AGCACAACCCCAGCAAAGCUAAGAAAUCCUUGUACAAGUGAACAAAACUGCACCAGCCCAUUUAGCUACAAAAAUGUGCUUAGUCUUACUAAUAAAGGAGAGUUUUUUAAUGAACUUGUU | 0.723
CAACCUCAGAGCCCAGACUUCCUGGAUAUUACCAACCCUAAAGCGGUAUUAGAAAAUGCAUUGAGAAACUUCGCCUGUCUGACGACUGGAGAUGUGAUUGCUAUCAACUACAAUGAGAAG | 0.327
CUCAGAGAUGUGGCAUAUCAGUAUGUGAAAAAGGGGUCUCGUAUAUUUGUGGAAGGGAAAGUGGACUAUGGCGAGUACAUGGAUAAAAAUAAUGUGAGGCGGCAAGCAACAACAAUCAUA | 0.524
UUUGUAUUUAUGCUAAGCACACGUGCUGGUGGUCUGGGCAUCAAUCUUGCAACUGCUGAUGUAGUCAUUUUAUAUGACUCAGAUUGGAAUCCCCAAGUUGAUCUUCAGGCUAUGGACCGU | 0.123
AAAGCCCAAGUAUUUUGAAAAAACUCGAACAGAUUUGACAAGGGUAGCCAGCUUGGAGUCUAGCAACUUGCCAAUGUGUUUACCAAUCUGGGGGCUUUGUUUUUCUUCCCUUCCUUAAAU | 0.403
UUACCCGAGAACGAGGAUGAGCUGGAGAGCACCAAUAGGCGCUACACCAAGAGGGACUGCAGCACUUUCCUCAGAACUAGUGAGACGGGCAUUGUGGACCAGGUCAUGGUCACUCUCAAC | 0.144
